Measured values collected from several papers.
Protocols differ between the studies behind these lines. Values joined by “and” are separate records of one study, mostly repeats; a detail may differ. Numbers after ± are the reported error.
IDE: Insulin-degrading enzyme (IDE, Homo sapiens, UniProt P14735)
Protein AF-9 with DOT1L: Protein AF-9, with DOT1L (Homo sapiens, UniProt P42568)
UniProt P42568, sequence (whole entry, looked up): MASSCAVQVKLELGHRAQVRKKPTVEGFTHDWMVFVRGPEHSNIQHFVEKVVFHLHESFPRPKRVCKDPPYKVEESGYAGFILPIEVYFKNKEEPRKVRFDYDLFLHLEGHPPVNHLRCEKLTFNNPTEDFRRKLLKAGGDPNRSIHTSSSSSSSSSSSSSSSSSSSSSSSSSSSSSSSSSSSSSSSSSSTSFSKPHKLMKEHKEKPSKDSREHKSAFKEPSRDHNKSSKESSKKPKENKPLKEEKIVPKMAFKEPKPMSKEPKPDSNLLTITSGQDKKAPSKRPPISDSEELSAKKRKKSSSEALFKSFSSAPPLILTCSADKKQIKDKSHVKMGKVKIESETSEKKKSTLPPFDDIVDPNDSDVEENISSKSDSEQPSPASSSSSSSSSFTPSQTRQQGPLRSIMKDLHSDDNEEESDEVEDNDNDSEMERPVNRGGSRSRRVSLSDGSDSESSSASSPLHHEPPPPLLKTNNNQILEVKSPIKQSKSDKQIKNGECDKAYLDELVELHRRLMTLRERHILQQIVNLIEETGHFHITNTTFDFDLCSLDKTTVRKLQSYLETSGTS
BRD9: Bromodomain-containing protein 9 (BRD9, Homo sapiens, UniProt Q9H8M2)
UniProt Q9H8M2, sequence (whole entry, looked up): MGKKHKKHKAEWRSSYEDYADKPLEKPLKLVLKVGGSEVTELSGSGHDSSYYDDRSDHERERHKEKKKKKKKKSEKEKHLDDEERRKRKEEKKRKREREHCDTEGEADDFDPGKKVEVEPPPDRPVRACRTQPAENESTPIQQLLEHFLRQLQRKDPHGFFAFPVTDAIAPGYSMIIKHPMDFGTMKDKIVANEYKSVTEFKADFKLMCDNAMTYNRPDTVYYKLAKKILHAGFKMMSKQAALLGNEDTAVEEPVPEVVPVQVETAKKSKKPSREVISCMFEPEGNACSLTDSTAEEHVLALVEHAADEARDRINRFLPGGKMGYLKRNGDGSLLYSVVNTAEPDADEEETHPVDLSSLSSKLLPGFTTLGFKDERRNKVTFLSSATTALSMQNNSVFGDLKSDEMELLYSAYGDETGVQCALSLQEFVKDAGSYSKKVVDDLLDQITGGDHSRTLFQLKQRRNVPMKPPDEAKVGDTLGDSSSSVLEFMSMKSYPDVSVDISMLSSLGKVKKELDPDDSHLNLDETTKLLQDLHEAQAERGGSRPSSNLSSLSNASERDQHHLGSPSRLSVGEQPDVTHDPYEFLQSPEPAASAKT
UniProt P48730, sequence (whole entry, looked up): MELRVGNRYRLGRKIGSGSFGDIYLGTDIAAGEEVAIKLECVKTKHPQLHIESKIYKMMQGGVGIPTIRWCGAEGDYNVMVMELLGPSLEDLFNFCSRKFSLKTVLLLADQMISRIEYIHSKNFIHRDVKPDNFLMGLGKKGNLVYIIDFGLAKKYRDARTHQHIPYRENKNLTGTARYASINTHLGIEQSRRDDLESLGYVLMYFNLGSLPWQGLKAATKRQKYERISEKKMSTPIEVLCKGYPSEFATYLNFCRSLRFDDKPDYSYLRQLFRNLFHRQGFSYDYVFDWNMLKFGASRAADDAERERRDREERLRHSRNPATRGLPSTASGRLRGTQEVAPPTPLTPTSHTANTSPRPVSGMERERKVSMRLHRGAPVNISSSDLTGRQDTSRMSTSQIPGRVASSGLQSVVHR
UniProt Q0VDG4, sequence (whole entry, looked up): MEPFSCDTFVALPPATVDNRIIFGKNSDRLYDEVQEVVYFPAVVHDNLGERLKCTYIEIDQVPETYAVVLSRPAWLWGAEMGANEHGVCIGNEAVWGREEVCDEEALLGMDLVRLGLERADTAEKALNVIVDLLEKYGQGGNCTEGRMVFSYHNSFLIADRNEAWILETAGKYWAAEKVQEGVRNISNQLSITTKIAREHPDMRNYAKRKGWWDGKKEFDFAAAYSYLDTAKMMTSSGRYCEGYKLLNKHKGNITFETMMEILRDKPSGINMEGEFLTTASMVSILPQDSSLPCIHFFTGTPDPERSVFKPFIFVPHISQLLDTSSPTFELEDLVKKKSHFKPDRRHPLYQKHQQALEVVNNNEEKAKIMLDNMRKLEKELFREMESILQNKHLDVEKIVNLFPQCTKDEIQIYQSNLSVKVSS
UniProt Q9NZQ7, sequence (whole entry, looked up): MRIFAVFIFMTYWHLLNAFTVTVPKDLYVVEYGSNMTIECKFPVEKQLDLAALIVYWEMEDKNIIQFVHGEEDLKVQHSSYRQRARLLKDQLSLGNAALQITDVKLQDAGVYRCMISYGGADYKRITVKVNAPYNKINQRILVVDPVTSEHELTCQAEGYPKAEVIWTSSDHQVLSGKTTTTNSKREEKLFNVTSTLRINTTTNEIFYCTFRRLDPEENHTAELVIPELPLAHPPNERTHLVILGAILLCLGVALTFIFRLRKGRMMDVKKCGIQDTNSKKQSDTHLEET
UniProt Q63881, sequence (whole entry, looked up): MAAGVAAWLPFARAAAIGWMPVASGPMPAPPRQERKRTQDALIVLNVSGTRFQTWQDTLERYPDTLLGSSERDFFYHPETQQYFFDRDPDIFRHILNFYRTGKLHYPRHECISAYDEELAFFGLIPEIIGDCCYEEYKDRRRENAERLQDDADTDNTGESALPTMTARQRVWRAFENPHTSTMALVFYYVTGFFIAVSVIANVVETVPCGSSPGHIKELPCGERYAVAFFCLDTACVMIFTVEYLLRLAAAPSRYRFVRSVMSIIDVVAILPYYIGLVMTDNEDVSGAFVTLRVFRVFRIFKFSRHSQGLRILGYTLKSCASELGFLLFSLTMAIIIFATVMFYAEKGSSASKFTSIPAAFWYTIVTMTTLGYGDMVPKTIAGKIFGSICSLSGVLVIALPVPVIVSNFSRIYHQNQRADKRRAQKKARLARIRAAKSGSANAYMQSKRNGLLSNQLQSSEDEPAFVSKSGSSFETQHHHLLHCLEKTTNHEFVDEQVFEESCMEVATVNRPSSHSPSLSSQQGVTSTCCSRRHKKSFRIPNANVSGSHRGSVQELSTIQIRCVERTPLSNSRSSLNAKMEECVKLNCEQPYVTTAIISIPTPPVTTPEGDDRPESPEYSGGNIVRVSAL
UniProt P0CAW2, sequence (whole entry, looked up): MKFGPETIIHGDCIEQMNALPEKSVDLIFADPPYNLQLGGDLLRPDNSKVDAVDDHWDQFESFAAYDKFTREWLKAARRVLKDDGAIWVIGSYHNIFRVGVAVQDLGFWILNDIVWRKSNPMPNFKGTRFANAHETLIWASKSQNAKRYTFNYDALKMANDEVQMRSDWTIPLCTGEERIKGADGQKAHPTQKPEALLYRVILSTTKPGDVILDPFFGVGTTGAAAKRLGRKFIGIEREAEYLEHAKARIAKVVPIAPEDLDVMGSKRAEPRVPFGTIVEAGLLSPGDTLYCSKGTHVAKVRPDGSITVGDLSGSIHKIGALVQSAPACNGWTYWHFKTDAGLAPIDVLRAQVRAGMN
UniProt P25024, sequence (whole entry, looked up): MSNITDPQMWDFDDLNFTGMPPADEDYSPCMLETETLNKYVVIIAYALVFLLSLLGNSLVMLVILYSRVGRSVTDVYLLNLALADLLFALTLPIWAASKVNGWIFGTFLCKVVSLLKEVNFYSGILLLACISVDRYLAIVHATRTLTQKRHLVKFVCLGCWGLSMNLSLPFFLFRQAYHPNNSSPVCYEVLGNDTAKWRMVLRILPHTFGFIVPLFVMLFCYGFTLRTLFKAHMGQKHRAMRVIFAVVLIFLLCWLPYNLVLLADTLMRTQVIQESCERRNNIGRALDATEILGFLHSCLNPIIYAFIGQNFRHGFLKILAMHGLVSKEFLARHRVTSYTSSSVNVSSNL
UniProt Q9UBS5, sequence (whole entry, looked up): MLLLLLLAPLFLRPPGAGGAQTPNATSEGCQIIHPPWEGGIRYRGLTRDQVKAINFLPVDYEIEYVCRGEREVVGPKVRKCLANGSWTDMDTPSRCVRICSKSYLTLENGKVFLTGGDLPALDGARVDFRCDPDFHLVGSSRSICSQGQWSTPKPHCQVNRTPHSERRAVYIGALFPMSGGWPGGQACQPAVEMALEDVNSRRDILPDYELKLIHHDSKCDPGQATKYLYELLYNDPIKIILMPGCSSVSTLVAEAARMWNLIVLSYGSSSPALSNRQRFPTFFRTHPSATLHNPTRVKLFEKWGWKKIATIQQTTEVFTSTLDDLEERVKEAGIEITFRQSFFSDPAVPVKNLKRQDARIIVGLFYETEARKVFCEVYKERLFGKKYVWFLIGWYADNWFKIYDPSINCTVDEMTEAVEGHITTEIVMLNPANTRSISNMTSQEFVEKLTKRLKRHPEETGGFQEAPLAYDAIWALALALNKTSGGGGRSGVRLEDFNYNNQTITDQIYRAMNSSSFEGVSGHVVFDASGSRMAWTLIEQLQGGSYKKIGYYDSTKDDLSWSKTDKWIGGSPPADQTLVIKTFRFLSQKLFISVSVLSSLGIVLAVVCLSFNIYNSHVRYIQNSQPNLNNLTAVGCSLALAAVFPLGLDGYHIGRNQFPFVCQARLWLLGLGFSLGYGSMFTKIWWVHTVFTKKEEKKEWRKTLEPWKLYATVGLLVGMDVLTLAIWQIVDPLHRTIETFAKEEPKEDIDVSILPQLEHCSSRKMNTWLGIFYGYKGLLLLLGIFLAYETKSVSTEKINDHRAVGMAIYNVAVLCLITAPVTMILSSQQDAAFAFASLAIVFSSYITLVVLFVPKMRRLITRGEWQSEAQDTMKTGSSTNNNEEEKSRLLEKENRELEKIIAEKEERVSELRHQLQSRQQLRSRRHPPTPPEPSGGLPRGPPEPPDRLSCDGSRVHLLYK
UniProt P15735, sequence (whole entry, looked up): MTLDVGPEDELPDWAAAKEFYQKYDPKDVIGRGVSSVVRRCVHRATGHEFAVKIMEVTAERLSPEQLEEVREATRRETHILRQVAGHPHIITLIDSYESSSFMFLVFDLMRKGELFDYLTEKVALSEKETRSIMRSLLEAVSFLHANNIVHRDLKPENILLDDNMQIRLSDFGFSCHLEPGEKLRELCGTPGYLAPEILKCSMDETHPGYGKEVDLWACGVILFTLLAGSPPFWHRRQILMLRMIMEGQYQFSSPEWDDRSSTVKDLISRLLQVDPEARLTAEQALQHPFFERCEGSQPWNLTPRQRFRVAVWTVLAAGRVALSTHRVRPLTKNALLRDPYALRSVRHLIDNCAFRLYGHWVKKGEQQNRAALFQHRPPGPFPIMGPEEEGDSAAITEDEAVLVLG

| SMILES | tested on | test | test system | setting | endpoint | result |
| --- | --- | --- | --- | --- | --- | --- |
| Nc1ncnc2c1ncn2C1OC(CSCCNCc2cccc(-c3ccccc3)c2)C(O)C1O (stereo not shown) | DNA methyltransferase CcrM (ccrMIM, Caulobacter vibrioides, UniProt P0CAW2) | – | – | 10 µM | inhibition | 47% |
| O=C(CCN1C(=O)c2ccccc2C1=O)OCc1nc2cc(C(F)(F)F)ccc2c(=O)[nH]1 | uncharacterized protein (Erigeron canadensis, UniProt A0A8M0FGR5) | enzyme activity | – | 100 mg/L | inhibition | > 30% |
| CCCC(=O)O | HBL-1 | – | – | 1 µM, 120 h | viability | 91.9% |
| Cc1c(COc2ccc(CN3CCCCC3C(=O)NCCCNC(=O)CN(C)CCCC34CCC(c5ccccc53)c3ccccc34)cc2Br)cccc1-c1ccccc1 (stereo not shown) | Programmed cell death 1 ligand 1 (CD274, Homo sapiens, UniProt Q9NZQ7) | binding, inhibitor, HTRF | – | 1 µM | inhibition | 10.9 ± 2.2% |
| CCCNC(=O)N1CC(=O)N2[C@@H](CO)[C@H](c3ccc(-c4cccc(C)c4)cc3)[C@@H]2C1 | IDE | enzyme activity, inhibitor, fluorogenic kinetic | – | together with: Mca-RPPGFSAFK(Dnp)-OH substrate | EC50 | 2.4 µM |
| Fc1ccc(Nc2ccc3ncc(OCC4CCNCC4)nc3c2)cc1F | Protein AF-9 with DOT1L | DOT1L binding, AlphaLISA | – | 10 µM | inhibition | 19 to 40% |
| COc1ccccc1-c1ccc([C@H]2[C@@H](CO)N3CCCCN(C(=O)c4ccncc4)C[C@H]23)cc1 | IDE | enzyme activity, inhibitor, fluorogenic kinetic | – | together with: Mca-RPPGFSAFK(Dnp)-OH substrate | EC50 | 4.9 µM |
| COc1cc(-c2cc(C(C)=O)n3ccccc23)c(OC)cc1C=O | BRD9 | AlphaScreen | – | 1 µM | inhibition | 92.6% |
| Cc1ccc(C(=O)Nc2ccc3ccccc3c2)o1 | A-type voltage-gated potassium channel KCND2 (Rattus norvegicus, UniProt Q63881) | ion current, whole-cell patch-clamp | – | 10 µM, rKv4.2 | inhibition | 7.12% |
| Fc1ccc(-c2ncn(C3=CCCCC3)c2-c2ccncc2)cc1 | Casein kinase I isoform delta (CSNK1D, Homo sapiens, UniProt P48730) | inhibitor | – | 1 µM | inhibition | 28% |
| COc1cc(C(=O)NS(=O)(=O)c2ccccc2C)ccc1Cc1cn(C)c2ccc(NC(=O)OC3CCCC3)cc12 | Volume-regulated anion channel subunit LRRC8C, part LRRC8A IL1 chimera (LRRC8C, Homo sapiens, UniProt Q8TDW0, I133F) | ion current, inhibitor, whole-cell patch clamp | HCT LRRC8-/- cells | 3 µM, +100 mV | inhibition | 23.9% and 18.8% and 14.6% and 58.2% and 17.1% |
| CC(C)c1ccc(Oc2ccc3ncc(OCC4CCNCC4)nc3c2)cc1 | Protein AF-9 with DOT1L | DOT1L binding, AlphaLISA | – | 10 µM | inhibition | 2 to 16% |
| CC(=O)c1cc(-c2ccccc2)c2ccccn12 | BRD9 | AlphaScreen | – | 1 µM | inhibition | 80.7% |
| NCc1ccccc1 | Secernin-3 (Homo sapiens, UniProt Q0VDG4) | probe labelling, inhibitor, competitive ABPP | HEK-293T cell lysate | up to 300 µM | inhibition | no inhibition |
| Nc1cc(F)ccc1NC(=O)/C=C/c1cnn(C/C=C/c2ccccc2)c1 | HBL-1 | – | – | 1 µM, 120 h | viability | 103% |
| Cc1ccc(-n2nc(C)c3conc3c2=O)cc1 | GABAA receptor | binding, radioligand displacement | – | concentration not given, together with: muscimol radioligand | inhibition | -13.4% |
| CN1CCN(c2cc(-c3ccncc3)c(-c3ccc4ccccc4c3)nn2)CC1 | C-X-C chemokine receptor type 1 (CXCR1, Homo sapiens, UniProt P25024) | antagonist, FLIPR | – | 10 µM | inhibition | 10.7% |
| CCc1ccc(Nc2ccc3ncc(OCC4CCNCC4)nc3c2)cc1 | Protein AF-9 with DOT1L | DOT1L binding, AlphaLISA | – | 10 µM | inhibition | 52% |
| CC[C@@H]1[C@H](F)C(=O)N[C@@H]1COc1nccc2cc(C(N)=O)c(OC)cc12 | Phosphorylase b kinase gamma catalytic chain, liver/testis isoform (PHKG2, Homo sapiens, UniProt P15735) | ATP-site probe binding, ActivX profiling | THP-1 cell lysate | 0.01 mM, Lys1 site | inhibition | 15.9% |
| O=C(N[C@@H](CSCc1nc2cc([N+](=O)[O-])ccc2[nH]1)C(=O)NO)c1ccccc1 | Lactoylglutathione lyase (GLO1, Homo sapiens, UniProt Q04760) | enzyme activity, inhibitor | – | concentration not given | inhibition | inactive |
| NC/C(=C\F)COc1cccc(Cn2c(=S)[nH]c(=O)c3[nH]cnc32)c1 | Gamma-aminobutyric acid type B receptor subunit 1 (GABBR1, Homo sapiens, UniProt Q9UBS5) | radioligand binding | – | 10 µM | inhibition | < 50% |
| COc1cc(C(C)O)c(OC)cc1-c1cc(C(C)=O)n2ccccc12 (stereo not shown) | BRD9 | AlphaScreen | – | 1 µM | inhibition | 93.9% |

Repeated from above:
| SMILES | tested on | test | test system | setting | endpoint | result |
| --- | --- | --- | --- | --- | --- | --- |
| CC[C@@H]1[C@H](F)C(=O)N[C@@H]1COc1nccc2cc(C(N)=O)c(OC)cc12 | Phosphorylase b kinase gamma catalytic chain, liver/testis isoform (PHKG2, Homo sapiens, UniProt P15735) | ATP-site probe binding, ActivX profiling | THP-1 cell lysate | 0.01 mM, Lys1 site | inhibition | 15.9% |
| CC(=O)c1cc(-c2ccccc2)c2ccccn12 | BRD9 | AlphaScreen | – | 1 µM | inhibition | 80.7% |
| CC(C)c1ccc(Oc2ccc3ncc(OCC4CCNCC4)nc3c2)cc1 | Protein AF-9 with DOT1L | DOT1L binding, AlphaLISA | – | 10 µM | inhibition | 2 to 16% |
